Results gathered from unrelated publications.
Each numbered part is a random draw from the data of one study; scales do not carry over between parts. Values joined by “and” are separate records of one study, mostly repeats; a detail may differ.

Block 1
Target: Prothrombin, mature alpha-thrombin (F2, Homo sapiens, UniProt P00734)
Technique: aptamer microarray, sandwich
Molecule type: DNA with 2'F-ANA
Matrix: in vitro
Concentration: 200 nM
Setting: whole 15-mer aptamer, many near background
Together with: Cy3 exosite-II aptamer, 400 nM
Direction: higher = stronger binding
Quantity: mean fluorescence intensity
Strand: GGTTGGTGTGGTTGG
2'F-ANA at 1 2 6 8 10 11 12 13 14: 49.5 a.u.
2'F-ANA at 1 2 4 5 6 7 11 12: 121 a.u.
2'F-ANA at 3 6 7 8 10 14: 368 a.u.
2'F-ANA at 1 2 5 7 9 10 12 14: 46.1 a.u.
2'F-ANA at 2 4 5 7 8 13 14 15: 45.4 a.u.
2'F-ANA at 1 3 4 6 10 11 13 14: 55.8 a.u.
2'F-ANA at 1 4 5 6 7 8 9 14: 54.8 a.u.
2'F-ANA at 2 7 8 9 14: 214 a.u.

Block 2
Target: D(4) dopamine receptor (DRD4, Homo sapiens, UniProt P21917)
Chain of UniProt P21917 (whole entry, looked up): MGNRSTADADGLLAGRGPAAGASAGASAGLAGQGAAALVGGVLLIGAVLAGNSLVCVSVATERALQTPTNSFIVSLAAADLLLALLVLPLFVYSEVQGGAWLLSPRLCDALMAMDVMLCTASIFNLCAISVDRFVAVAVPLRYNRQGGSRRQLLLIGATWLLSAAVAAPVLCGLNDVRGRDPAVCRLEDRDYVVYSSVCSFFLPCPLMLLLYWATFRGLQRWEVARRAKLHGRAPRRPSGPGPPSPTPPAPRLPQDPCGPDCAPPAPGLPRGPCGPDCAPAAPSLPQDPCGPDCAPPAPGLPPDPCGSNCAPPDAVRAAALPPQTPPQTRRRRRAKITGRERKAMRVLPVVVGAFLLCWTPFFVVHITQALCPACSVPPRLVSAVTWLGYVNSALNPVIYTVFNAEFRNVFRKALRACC
Read-out: ligand displacement
Concentration: 10 µM
Quantity: inhibition
CCc1ccccc1C(=O)Nc1n[nH]c2c(C)c(F)c(C3C(C#N)=C(C)N(C)C(C)=C3C#N)cc12: -0.18%
NS(=O)(=O)c1cc(NC(=O)Cc2ccccc2)ccc1Oc1cccc(Cl)c1: 28.4%
CN1CCN(C(=O)C(C)(C)c2ccc(C(=O)Nc3cn4cc(-c5cc(C(C)(C)C)cc(C(C)(C)C)c5)ccc4n3)cc2)CC1: 34.8%
C[C@H](c1ccc(F)cc1)N(Cc1cccc(C(=O)O)c1)C(=O)c1cnc2ccccc2c1: 10.1%
CC(=O)N1CCC(c2ccc(C(=O)NC3=NCCN3)cc2C(F)(F)F)CC1: -5.64%
Cc1cc(Nc2nccc(C)n2)cc(-c2cnc([C@@]3(O)CC[C@H](C(=O)O)C(C)(C)C3)s2)c1: -6.05%
O=c1nc(-c2ccccn2)sc2ccccc12: 10.1%
CCC(F)(F)c1cc(N2CCC(S(C)(=O)=O)CC2)nc2sc(C(N)=O)c(N)c12: 44.6%
CN([C@@H]1CCc2c(CC(=O)O)c3ccccc3n2C1)S(=O)(=O)c1ccc(F)cc1: 3.14%
Nc1nc(NCc2ccccc2)nc(-c2cccc(CO)c2)n1: 24.4%
CN(C)c1ncnc(-c2ccc3nc(Nc4cc(CN5CCN(C(=O)CC(F)(F)F)CC5)ccn4)[nH]c3c2)c1Cl: 7.18%
Nc1cnc(N2CCc3cc(S(=O)(=O)Nc4c(F)cc(Cl)cc4F)cc(N4CCCC4=O)c32)nc1: -5.02%
CN(C)C(=O)c1sc2nc(N3CCC(S(C)(=O)=O)CC3)cc(C(F)(F)F)c2c1N: 4.15%
Cc1c(NC(=O)c2cc(C(N)=O)nc3cc(F)ccc23)c(C(F)(F)F)nn1Cc1ccc(C#N)cc1: 15.1%
O=C(N[C@H]1CCCCC/C=C\C2C[C@@]2(C(=O)O)NC(=O)[C@@H]2C[C@@H](Oc3ccncc3)CN2C1=O)OC1CCCC1 (some centres unmarked): 9.26%
CC(=O)Nc1ncc(CN2CCC[C@H](Cc3cc(C)nc(C)c3)C2)s1: 3.53%
COc1cccc(NC(=O)c2nc3scc(CN(C)Cc4ccccc4)c3c(=O)[nH]2)c1: 14.4%
N#CC1(c2ccccn2)CCN(Cc2cc(C(=O)N3CCCC3)c(=O)n3ccccc23)CC1: -8.64%
CNC(=O)Nc1ccc2c(c1)CC[C@]21OC(=O)N(CC(=O)N(Cc2ccc(F)cc2)[C@@H](C)C(F)(F)F)C1=O: 7.26%
CCOc1ccc(S(=O)(=O)Nc2ccc(Cl)cc2C#Cc2cnc(C(=O)O)cc2OC)c2ncccc12: 4.2%
C[C@H](c1ccnc(Nc2nc3ccc(-c4cc(N(C)C)ncn4)cc3[nH]2)c1)N1CCN(C(=O)CC(F)(F)F)CC1: 8.17%
CN1CCN(c2ccnc(NCCc3ccccc3)n2)CC1: 13%
COc1cc(N[C@@H]2CCCC[C@]2(O)C(F)(F)F)ccc1F: 6.32%
Cc1noc([C@H]2C[C@@H](c3ccc(C(F)(F)F)cc3)CN(C(=O)N3CCS(=O)(=O)C3)C2)n1: 6.3%
COc1ccc2cc(OCC3(C(=O)O)CN(C(=O)c4ccc(F)cc4)C3)ccc2c1: 8.76%

Block 3
Organism: Sarcocystis neurona
Read-out: parasite growth
Concentration: concentration not given
Setting: second screen
Reference: untreated
Quantity: log2 fold change
O=C1c2c(O)cc(O)cc2OC(c2ccc(O)c(O)c2)C1O (centres unmarked): 0.21
NC(=O)OCC(COC(N)=O)c1ccccc1.O: 0.33
Cc1cccc(CCN2CCC(C(=O)c3ccc(NS(C)(=O)=O)cc3)CC2)n1.Cl.Cl: 0.13

Block 4
Structure (SMILES): CC1=C(/C=C/C(C)=C/C=C/C(C)=C/C(=O)O)C(C)(C)CCC1
Cell line: HuT78
Concentration: concentration not given
Setting: unit not given
Reference: vehicle
Quantity: mRNA level
qPCR, measured: IL4: 0.364 and 0.232 and 0.362
measured: IL12RB1: 2.56 and 3.08 and 1.77
measured: GATA3: 0.626 and 0.509 and 0.587

Block 5
Host: mouse
Matrix: microsomes or S9
Concentration: 2 µM
Time: 0.5 h
Quantity: remaining compound
O=C(Nc1ccncc1)c1nn(Cc2ccccc2)c2c1CCc1ccccc1-2: 76.3%
CCOC(=O)N1CCN(C(=O)c2ccc(-c3ccc(Oc4ccccc4)cc3)nc2)CC1: 0.737%
O=c1c(O)c(-c2ccccc2)oc2cc(O)ccc12: 1.08%
CC(C)c1cc(C(=O)N2C[C@@H]3CC[C@H](C2)N(C)C3=O)c(O)c(C(C)C)c1: 13%

Block 6
Target: Beta-1 adrenergic receptor (ADRB1, Homo sapiens, UniProt P08588)
Chain of UniProt P08588 (whole entry, looked up): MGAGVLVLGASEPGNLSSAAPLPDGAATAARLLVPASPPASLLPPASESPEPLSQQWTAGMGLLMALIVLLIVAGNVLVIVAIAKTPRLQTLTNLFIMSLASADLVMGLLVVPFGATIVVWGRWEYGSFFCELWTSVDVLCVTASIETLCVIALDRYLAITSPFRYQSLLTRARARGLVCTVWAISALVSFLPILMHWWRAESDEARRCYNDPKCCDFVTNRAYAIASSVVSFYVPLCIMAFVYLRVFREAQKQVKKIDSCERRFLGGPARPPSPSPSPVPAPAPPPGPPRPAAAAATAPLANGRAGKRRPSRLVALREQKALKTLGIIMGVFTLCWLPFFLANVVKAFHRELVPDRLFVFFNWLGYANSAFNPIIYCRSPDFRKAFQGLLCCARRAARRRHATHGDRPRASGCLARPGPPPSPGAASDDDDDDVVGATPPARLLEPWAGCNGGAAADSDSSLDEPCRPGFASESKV
Action: antagonist
Quantity: IC50
Cc1noc2c(NC(C)C)cc(-c3ccccc3)nc12: ≥ 100 µM
CN(C)c1cc(=O)c2ccnc(-c3ccc(O)c(F)c3)c2o1: ≥ 100 µM
CCC(CC)C(=O)Nc1ccc([C@@H](O)[C@H]2COCC(=O)N2)cc1: ≥ 100 µM

Block 7
Cell line: mouse MPNST tumor cells
Technique: high-content immunofluorescence imaging
Measured: nuclear SOX9
Concentration: 10 µM
Time: 12 h
Setting: mean of 2 replicates
Reference: DMSO control
Direction: higher = more nuclear SOX9
Quantity: nuclear SOX9 intensity
CCN(CC)CCNC(=O)c1cc(Cl)c(N)cc1OC: 101 % of DMSO
CC(C)c1ccc(C(=O)N=C(N)N)cc1S(C)(=O)=O: 93.4 % of DMSO
Cc1ccc(Nc2ncc3c(n2)N(C)C(=O)N(c2cc(NC(=O)c4cccc(C(F)(F)F)c4)ccc2C)C3)cn1: 150 % of DMSO
O=S(=O)(N[C@H](CO)C(C(F)(F)F)C(F)(F)F)c1ccc(Cl)s1: 100 % of DMSO
CN(C)CCC=C1c2ccccc2CCc2ccccc21: 199 % of DMSO

Mixed results
COc1ccc(-c2c(Nc3ccccn3)[nH]c3c(C4=CCCCC4)c(-c4ccccc4)nn3c2=O)cc1
swing over dosing interval (human, plasma; oral, 200 mg twice daily; reference: (Cmax-Ctau) over Ctau): 0.535 and 0.285 and 0.43

CCCN1C(=O)[C@H](CC(C)C)NC(=O)[C@@H](N(C)C(=O)[C@H](CC2CCC2)NC(=O)[C@@H]2C[C@@H](F)CN2C(=O)[C@@](C)(O)C(F)(F)F)CCCCNC(=O)C2(CC2)NC(=O)[C@@H]1Cc1cc(Cl)ccc1Cl
tumour volume (mouse NCI-H1048 xenograft; iv, 100 mg/kg once daily, day 7): 297 mm3 and 417 mm3 and 314 mm3 and 225 mm3 and 364 mm3 and 291 mm3 and 376 mm3 and 342 mm3

Repeated from above (block 1):
2'F-ANA at 1 2 4 5 6 7 11 12: 121 a.u.
2'F-ANA at 3 6 7 8 10 14: 368 a.u.
2'F-ANA at 1 2 5 7 9 10 12 14: 46.1 a.u.
2'F-ANA at 2 4 5 7 8 13 14 15: 45.4 a.u.
2'F-ANA at 1 3 4 6 10 11 13 14: 55.8 a.u.
2'F-ANA at 1 4 5 6 7 8 9 14: 54.8 a.u.
2'F-ANA at 2 7 8 9 14: 214 a.u.
